# Published values of several laboratories.
# Each numbered part is a random draw from the data of one study; scales do not carry over between parts.

# Set 1
# Target: Sal-like protein 4, full length isoform A (SALL4, Homo sapiens, UniProt Q9UJQ4, residues 1-1053)
# Sequence of UniProt Q9UJQ4 (whole entry, looked up): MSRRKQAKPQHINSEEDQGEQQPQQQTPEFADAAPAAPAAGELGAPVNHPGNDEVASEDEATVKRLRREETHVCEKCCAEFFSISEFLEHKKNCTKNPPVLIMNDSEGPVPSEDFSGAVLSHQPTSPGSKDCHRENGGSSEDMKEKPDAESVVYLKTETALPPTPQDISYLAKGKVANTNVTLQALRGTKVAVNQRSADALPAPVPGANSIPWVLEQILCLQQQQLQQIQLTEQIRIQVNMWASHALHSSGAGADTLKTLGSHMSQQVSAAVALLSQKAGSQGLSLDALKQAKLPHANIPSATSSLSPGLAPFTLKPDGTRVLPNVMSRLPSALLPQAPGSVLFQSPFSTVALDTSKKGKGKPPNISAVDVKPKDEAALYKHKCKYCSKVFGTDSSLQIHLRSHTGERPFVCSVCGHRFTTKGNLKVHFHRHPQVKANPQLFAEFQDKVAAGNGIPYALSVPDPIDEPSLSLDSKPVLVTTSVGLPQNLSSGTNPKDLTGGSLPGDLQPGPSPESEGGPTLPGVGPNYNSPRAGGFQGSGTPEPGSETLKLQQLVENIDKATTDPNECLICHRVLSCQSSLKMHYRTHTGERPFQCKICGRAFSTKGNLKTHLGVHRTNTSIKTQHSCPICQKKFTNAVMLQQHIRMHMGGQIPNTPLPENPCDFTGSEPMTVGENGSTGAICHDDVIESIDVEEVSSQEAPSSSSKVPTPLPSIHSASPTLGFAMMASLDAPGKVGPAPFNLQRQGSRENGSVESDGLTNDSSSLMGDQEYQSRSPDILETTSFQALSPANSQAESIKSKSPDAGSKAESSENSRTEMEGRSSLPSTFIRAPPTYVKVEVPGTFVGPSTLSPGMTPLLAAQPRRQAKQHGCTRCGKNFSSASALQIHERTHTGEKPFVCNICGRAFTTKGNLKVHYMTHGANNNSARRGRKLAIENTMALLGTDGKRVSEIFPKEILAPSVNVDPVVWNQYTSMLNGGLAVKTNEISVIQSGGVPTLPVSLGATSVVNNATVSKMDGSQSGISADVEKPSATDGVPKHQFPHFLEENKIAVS
# Method: universal PBM
# Molecule type: double-stranded DNA, one strand shown
# Matrix: in vitro
# Tested at: 600 nM
# Setting: 8-mer, flanks averaged, mean of replicates
# Reading: higher = stronger binding
Sequence,E-score
ATGCCAAA,0.072
ACGAGCCT,-0.168
CAACGTTG,0.197
CTGATCAC,-0.064
AGAAGTTC,-0.126
AGCAAGCG,-0.18
AAGCCGCT,-0.247
AGGACAAT,0.075
GAGATTAC,-0.0488
AACACAAC,0.159
CTTAATAC,0.208
CGGAGAGC,-0.171
CGATAGTC,0.0274
GCAAAATA,0.348
CCGAAACC,-0.29
CCTACCCC,-0.324
CATCACCA,0.0914
ACGCGTGG,-0.211
TAGCGGGA,-0.198
AGTCAGCG,-0.296
ATAGGCCG,-0.23
ACTGCTAA,0.105
AAACATTT,0.296
CGGGCTTC,-0.405
ACTTGATG,0.0866

# Set 2
# Target: Histone acetyltransferase KAT6A, winged helix 1, GST fusion (KAT6A, Homo sapiens, UniProt Q92794, residues 1-85)
# Method: protein binding microarray
# Molecule type: double-stranded DNA, one strand shown
# Matrix: in vitro
# Tested at: not given
# Setting: 8-mer, flanks averaged, mean of 2 arrays, mostly near background
# Reference: not given
# Reading: higher = stronger binding
# Construct (chain): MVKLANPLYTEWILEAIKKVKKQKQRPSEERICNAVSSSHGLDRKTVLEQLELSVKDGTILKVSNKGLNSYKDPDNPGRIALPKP
Sequence,E-score
CCTAGTCG,-0.0878
GAGGCTGA,-0.253
CTCTCGAC,-0.139
AAACTGAT,-0.0227
CACCCGTC,0.297
GACGTGAA,-0.048
CTTACGAC,-0.0176
ATCGGCTA,0.0929
CGACTAAC,-0.022
AAATGCCT,-0.242
ATACATCC,-0.00176
TATTCACA,-0.208
CACGTAAC,0.00841
AATGCGAA,0.0251
GAACAATC,-0.00848
GTCTTGTA,-0.103
GAATAATA,-0.0802
TCGATCAA,-0.134
CAAAATAC,-0.158
CAATTGTG,-0.108
ACCAGTTG,-0.231
CGCACTCC,0.256
GAATGACC,0.0051

# Set 3
# Target: RING finger protein unkempt homolog, zinc fingers 1-6, GST-SBP tag (UNK, Homo sapiens, UniProt Q9C0B0, residues 30-357)
# Method: RNA Bind-n-Seq
# Molecule type: RNA
# Matrix: in vitro
# Tested at: not given
# Setting: RNA with constant flanks, ends assumed
# Reference: input RNA pool
# Reading: higher = stronger binding
# Shared flanks, not repeated: GGGAGUUCUACAGUCCGACGAUC … CAACAGAGGAUUGAGCAUCA
# Residues (chain): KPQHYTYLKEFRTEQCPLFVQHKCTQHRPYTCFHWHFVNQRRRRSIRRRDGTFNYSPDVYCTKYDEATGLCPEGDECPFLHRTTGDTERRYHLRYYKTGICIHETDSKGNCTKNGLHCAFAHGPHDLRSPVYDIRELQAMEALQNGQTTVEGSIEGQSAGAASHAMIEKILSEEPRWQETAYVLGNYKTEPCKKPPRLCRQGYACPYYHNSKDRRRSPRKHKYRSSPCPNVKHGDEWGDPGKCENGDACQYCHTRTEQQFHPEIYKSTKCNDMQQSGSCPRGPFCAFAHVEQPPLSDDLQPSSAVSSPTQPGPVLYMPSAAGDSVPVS
Sequence,bound/input enrichment
ACUUGGGGCUCUGCAGGACCUUCUCUGUCCAGCGCCCCCUUUCUGUUGUGCGAUUAGUUGCCGCUGCCAUGCUCAGAAUUGCCUUUUGAGAGCUGAAGCAAGGUGCUUACUGUCACCUGA,0.137 ratio
GUGUAGAGUGUUUAACCGAUGAGUAGAGUACAGUAUUCUCUGGUUAAUAAAAUUAUUCUAUUCCGUGCACUUGUUGCACAGAUGAACAUAGACACAAAGAGGCUAUAUGUCUUCUGCUGA,0.167 ratio
UUCUCCGUACUUUUCUCUGAAAGGAAUCUUGUCUUGUUAAACCCUAAAGAGAGUGUCCUUAACCGCAAUCAGCACUUGUAAGCUUAUAUACUGGUGCAUUUGGUUUUCUGUUGGGUGAAU,0.332 ratio
GGUCAUCGCGCCCUUUCCCCUGCCGGUGUCCUGCUCGCCGUCCCCGCCAUGCUGUCUCCCGACUUUUUGGACGAUGUGCGGCGGAUGAACAAGCGGCAGCUCUAUUAUCAAGUCCUAAAU,0.0943 ratio
GAACCUGCUCUUGCAUCAGUGGUAAUCCAUAAGGAGGCCACUGUCUUUGAUCUUCCUAAAUUCCGUGUUUGUGGUAGUUCUCAAGAGAGUGACUCAUUACCUAACUCAGCUCAUGAUCGA,0.151 ratio
CAGAAAGCUUGACCAAGUUACAUAUUCUAGAGAAUGUCCCGAGUGCCAAGCACGUUUAUACACCGGGCGUGUAUUCCAGUCUUUUCUGUCAUUCUGUGUGUGUGUGUGUGUACGUAUGUG,0.249 ratio
GGAGGGUGAGCACUGGAGCUGGAAAGGCCAGGAGGGCGGGGCUCGAAGUUGUGGGCGGAGACCCGGGGCGUGGCCAAAUUGAUCGUGUACUGUGAAAGAGGUACAGUGUGUUGCAAAUAG,0.773 ratio
GGUGUUGCUGGAGUAGGGGCUGGUCUGGCAUAUCUAAUAAGAUAGCCUUGUGAGUGCAACCGGGGACUCUUAAAGCUCCAGCCACCAAACUACAUGCAUCUGUGAAAACAUGUGUAUUUA,0.142 ratio
AAUAUAAUGCAGGUUUUUAUAUACUGUCUGGAACAGUUGAGCACCAAGCCUGAUGCAGAUACCGAUACUACACAUCUCUCUGUUGAUGUUUCUUCCCCUGACUUGUUUGGAAGUAUCCAU,0.181 ratio
GUAUCUAGCUUUUAAAGAACUACAUGUGUCUUUAAAAGUAUUUAUUGUGCAAAUGUACUACCGCAGUUCAUCUUCAUGUUCCAGCCUUACUCUGUGUUAAUACUGCUUCACAAUUCUGAA,0.217 ratio
UCAAAAAAAAGUGUAUUUCAGACUUGGUAUUCCUACUGUGGGGUGUGGUUUUCCUUUGUUUUCCGCCGCAAAUUUGGAUGUAGACUGACAGACAUAGCUGAAUGUCUUAAUAAAUUUAAA,0.555 ratio

# Set 4
# Target: Fragile X messenger ribonucleoprotein 1, C-terminal low-complexity region (Fmr1, Mus musculus, UniProt P35922)
# Method: RNA Bind-n-Seq
# Molecule type: RNA
# Matrix: in vitro
# Tested at: 200 nM
# Setting: whole 134-nt RNA, ends assumed
# Added: 150 mM LiCl
# Reference: input library
# Reading: higher = stronger binding
# Each molecule: 7-deaza-guanosine replaces G
# Shared flanks, not repeated: GGGAGUUCUACAGUCCGACGAUC … UGGAAUUCUCGGGUGUCAAGG
Sequence,log2 enrichment
CCUGUGCUACACAUCGUAUGUACCGAAUCAAACCCCCAAACCCCCCCAAACCCCCCCAAAAAAGUAUUAUGUUACGCCGUUCGGAUCUGC,0.887
UCAAGUCCUGUGCUACACAUCGUAUGUACCGAAUCGGUUUGGAAAAAAAGGAGGAAAGUAUUAUGUUACGCCGUUCGGAUCUGCACUUCC,-0.649
UGGCCCUGGUGGCAUGCGGGGAGGAAGAGGUGGCCUCACGGAUCGUGGUGGUCCCGGUGGAAUGUUCAGAGGUGGCCGUGGUGGAGACAG,0.0602
UGUUGCCGUGUGUCUCACCCUACCAUUUCAGAAAAAUGUUCGUUGGUGGCCUGAGCUGGGAUACUAGCAAAAAAGAUUUAAAAGACUAUU,-4.32
CUCAAGUCCUGUGCUACACAUCGUAUGUACCGAAUCGGAAGGAAGGGGAAGGGAAAGUAUUAUGUUACGCCGUUCGGAUCUGCACUUCCA,-0.246
UGCGCCAACCUAGGCUUUCUUCUUCCUCUCCUCUUUAUAGGCGGAGUCGAUCUCCCAAAAGGAGAAGGUAGGCCUUCAGUCAUUUGUGAU,-0.912
CAAGUCCUGUGCUACACAUCGUAUGUACCGAAUCGGGAGGGAAAGGGUUUUUGGGAAAGUAUUAUGUUACGCCGUUCGGAUCUGCACUUC,-1.15
UUCCGGAAGAAGAAGCUCCGAUUUGGCCGGAGCCGGAUCCACGAGUGGGGUCUGUUUGCCAUGGAACCCAUUGCUGCUGACGAGAUGGUC,-1.15
UCCUGUGCUACACAUCGUAUGUACCGAAUCAAAUUUAAACCCCCCCAAACCCCCCCAAAAAAGUAUUAUGUUACGCCGUUCGGAUCUGCA,1.42
AAGUCCUGUGCUACACAUCGUAUGUACCGAAUCGGUUUUGGGGUUUUGGGUUUUGGAAAGUAUUAUGUUACGCCGUUCGGAUCUGCACUU,-1.66
AGUCCUGUGCUACACAUCGUAUGUACCGAAUCGGGGUUUUGGGUUUUGGGUUUUGGGAAAGUAUUAUGUUACGCCGUUCGGAUCUGCACU,-1.67

# Set 5
# Target: Interferon regulatory factor 7, full length, phosphomimetic (IRF7, Homo sapiens, UniProt Q92985, residues 1-503, S101K/S471D/S472D/S475D/S476D/S477D/S483D/S484D/S487D)
# Sequence of UniProt Q92985 (whole entry, unmodified, looked up): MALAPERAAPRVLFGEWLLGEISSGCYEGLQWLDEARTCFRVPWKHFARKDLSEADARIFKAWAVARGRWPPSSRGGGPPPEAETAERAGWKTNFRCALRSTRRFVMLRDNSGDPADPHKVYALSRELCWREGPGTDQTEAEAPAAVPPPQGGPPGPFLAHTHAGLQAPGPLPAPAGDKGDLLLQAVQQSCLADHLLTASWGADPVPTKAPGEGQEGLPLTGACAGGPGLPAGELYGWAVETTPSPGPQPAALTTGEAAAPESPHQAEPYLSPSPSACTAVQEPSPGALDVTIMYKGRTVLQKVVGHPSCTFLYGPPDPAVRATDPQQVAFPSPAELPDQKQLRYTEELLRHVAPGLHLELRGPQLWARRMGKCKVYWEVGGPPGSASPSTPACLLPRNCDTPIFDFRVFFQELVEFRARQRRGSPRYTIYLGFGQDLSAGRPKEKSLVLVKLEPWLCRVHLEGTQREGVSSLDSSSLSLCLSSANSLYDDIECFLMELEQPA
# Method: protein-binding microarray
# Molecule type: double-stranded DNA, one strand shown
# Matrix: in vitro
# Tested at: 250 nM
# Setting: 60-bp whole probe
# Added: salmon DNA 0.4 mg/ml
# Reference: random background probes
# Reading: higher = stronger binding
# Shared flanks, not repeated: GCCTAGCAC … GTCTTGATTCGCTTGACGCTGCTG
Sequence,log fluorescence [z-score]
GACGGTCTCCCTCTCCTGACGTGCTAG,-0.148
CTGTTTTTGCTTTCTTTTTGGTGCTAG,3.17
TTAGTTATCGGACTGGGTTAGTGCTAG,0.472
GACGATATCAGGCTGGAGACGTGCTAG,-0.548
GACGAACTAGGGTATCGAGACGTGCTA,-0.235
TTAGGTTCCGGTTTGGGTTAGTGCTAG,7.26
TCAGGTAGCCTTATCCCACTGTGCTAG,-0.53
GATGGTATCCTTATCCTGACGTGCTAG,-0.01
GACGGCTTCGGGTTTCGGGACGTGCTA,1.8
CCAAATCTGTGTTATTAAAATGTGCTA,0.285
TTAGGTTTCGGGTATCGGTTCGTGCTA,8.26
TCAACCATCTCATATAAAACTGTGCTA,0.0877
TTAGAACTGGGGTATCGTTTAGTGCTA,0.254
TTAGAGCTGAGTATCGATTAGTGCTAG,-0.102
TTAGGAATCGACACTGGGTTAGTGCTA,-0.0483
TTAGGTGTCCTTTCCCTTTAGTGCTAG,0.369
GACGGTTTCGGACTGGGGACGTGCTAG,3.75

# Repeated from above (set 2):
Sequence,E-score
AATGCGAA,0.0251
GAACAATC,-0.00848
GTCTTGTA,-0.103
GAATAATA,-0.0802
TCGATCAA,-0.134
CAAAATAC,-0.158
